Assay results collected from several papers.
± gives the spread as reported.

The chains behind the UniProt entries cited, without tags or fusion partners. Residues count along the entry.
UniProt P08172, whole entry: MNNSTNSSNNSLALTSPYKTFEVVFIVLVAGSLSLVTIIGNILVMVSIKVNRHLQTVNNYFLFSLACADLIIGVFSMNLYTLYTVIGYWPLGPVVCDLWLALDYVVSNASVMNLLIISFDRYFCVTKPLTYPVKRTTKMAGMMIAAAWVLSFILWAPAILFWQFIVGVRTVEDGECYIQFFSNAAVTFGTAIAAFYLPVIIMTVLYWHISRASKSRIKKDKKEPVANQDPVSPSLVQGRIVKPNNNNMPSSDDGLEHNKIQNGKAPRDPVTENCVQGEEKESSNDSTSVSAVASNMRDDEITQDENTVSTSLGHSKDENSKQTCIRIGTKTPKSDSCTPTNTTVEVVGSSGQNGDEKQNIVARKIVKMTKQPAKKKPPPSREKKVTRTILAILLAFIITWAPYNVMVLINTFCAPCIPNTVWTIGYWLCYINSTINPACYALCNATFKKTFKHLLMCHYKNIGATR
UniProt P9WPP7, whole entry: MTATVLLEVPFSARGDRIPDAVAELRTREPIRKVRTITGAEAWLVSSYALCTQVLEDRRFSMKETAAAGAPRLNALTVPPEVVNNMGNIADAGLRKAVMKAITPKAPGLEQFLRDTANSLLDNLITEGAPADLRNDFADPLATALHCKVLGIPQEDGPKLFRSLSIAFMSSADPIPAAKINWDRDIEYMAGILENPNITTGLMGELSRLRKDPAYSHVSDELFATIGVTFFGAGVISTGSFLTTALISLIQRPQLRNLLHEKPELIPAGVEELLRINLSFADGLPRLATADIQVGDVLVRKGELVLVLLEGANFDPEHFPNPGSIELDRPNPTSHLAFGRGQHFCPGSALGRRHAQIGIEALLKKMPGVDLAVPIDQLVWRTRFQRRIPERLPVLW
UniProt P41145, whole entry: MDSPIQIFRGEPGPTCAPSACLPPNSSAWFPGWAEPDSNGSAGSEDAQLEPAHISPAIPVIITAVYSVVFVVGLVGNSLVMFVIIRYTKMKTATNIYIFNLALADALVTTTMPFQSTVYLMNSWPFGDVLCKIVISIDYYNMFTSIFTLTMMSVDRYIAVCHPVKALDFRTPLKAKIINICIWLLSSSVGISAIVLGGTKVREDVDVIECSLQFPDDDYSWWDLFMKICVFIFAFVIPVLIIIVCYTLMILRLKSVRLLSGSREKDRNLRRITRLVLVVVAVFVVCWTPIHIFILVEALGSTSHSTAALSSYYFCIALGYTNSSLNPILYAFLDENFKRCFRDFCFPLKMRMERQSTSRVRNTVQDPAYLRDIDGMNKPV
UniProt Q16620, whole entry, looked up: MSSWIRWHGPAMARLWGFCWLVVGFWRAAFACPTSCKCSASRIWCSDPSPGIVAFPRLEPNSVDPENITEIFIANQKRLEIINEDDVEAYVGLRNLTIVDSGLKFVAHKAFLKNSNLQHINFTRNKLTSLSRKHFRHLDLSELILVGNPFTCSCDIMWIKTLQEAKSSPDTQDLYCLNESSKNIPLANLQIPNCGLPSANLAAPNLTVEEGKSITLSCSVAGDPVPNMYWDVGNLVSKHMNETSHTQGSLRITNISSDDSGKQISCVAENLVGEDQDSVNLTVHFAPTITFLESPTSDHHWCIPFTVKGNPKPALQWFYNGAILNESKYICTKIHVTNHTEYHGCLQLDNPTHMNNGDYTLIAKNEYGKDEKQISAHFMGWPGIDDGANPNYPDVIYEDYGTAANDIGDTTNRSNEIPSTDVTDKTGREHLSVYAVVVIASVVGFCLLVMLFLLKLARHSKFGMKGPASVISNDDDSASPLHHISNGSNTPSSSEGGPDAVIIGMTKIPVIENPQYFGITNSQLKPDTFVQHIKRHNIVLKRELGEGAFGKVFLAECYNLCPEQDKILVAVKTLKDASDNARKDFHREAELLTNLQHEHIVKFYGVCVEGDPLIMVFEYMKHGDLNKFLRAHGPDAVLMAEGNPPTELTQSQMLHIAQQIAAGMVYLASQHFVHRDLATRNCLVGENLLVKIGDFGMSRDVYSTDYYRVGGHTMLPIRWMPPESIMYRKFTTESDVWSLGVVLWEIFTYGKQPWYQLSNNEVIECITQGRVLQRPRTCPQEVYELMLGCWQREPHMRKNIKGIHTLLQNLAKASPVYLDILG
UniProt P35372, whole entry: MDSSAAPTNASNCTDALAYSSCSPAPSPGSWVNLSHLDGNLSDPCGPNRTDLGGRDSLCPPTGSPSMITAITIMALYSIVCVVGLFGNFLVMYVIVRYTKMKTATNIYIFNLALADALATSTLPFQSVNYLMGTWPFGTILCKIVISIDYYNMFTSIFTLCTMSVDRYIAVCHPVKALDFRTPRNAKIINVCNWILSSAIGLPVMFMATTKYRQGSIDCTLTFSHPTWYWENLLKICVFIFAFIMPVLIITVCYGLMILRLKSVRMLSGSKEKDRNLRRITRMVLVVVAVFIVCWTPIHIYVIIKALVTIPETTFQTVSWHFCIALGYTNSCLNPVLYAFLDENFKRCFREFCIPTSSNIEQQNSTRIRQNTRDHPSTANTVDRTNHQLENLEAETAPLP
UniProt P24046, 22-479 limits assumed: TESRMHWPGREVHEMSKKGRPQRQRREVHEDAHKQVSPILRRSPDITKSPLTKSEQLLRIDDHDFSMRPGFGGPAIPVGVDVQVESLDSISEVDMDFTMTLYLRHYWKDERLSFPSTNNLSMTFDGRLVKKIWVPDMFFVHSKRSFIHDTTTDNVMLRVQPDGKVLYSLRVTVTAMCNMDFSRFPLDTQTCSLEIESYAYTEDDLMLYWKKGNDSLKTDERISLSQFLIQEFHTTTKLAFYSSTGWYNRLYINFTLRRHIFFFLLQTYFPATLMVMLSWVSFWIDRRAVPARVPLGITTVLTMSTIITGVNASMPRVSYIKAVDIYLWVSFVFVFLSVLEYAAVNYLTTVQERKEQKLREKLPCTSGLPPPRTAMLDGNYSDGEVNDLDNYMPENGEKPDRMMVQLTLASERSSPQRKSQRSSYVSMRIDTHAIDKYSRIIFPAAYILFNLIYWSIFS
UniProt P23977, whole entry: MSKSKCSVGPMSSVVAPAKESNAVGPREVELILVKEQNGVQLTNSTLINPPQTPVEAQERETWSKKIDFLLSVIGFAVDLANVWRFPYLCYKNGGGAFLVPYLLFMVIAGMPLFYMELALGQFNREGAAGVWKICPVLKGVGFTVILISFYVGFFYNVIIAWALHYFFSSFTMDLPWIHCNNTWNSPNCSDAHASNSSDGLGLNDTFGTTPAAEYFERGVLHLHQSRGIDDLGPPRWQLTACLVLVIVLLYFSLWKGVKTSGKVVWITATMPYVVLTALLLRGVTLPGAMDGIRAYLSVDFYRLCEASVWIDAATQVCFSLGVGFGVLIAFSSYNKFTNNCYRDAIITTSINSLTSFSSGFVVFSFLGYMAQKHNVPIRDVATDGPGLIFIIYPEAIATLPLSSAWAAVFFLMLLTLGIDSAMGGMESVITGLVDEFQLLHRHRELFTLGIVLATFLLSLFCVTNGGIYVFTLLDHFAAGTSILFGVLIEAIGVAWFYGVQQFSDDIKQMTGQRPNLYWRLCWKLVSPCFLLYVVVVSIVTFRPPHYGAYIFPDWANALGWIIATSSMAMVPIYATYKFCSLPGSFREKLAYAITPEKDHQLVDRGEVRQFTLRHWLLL
UniProt P41143, whole entry: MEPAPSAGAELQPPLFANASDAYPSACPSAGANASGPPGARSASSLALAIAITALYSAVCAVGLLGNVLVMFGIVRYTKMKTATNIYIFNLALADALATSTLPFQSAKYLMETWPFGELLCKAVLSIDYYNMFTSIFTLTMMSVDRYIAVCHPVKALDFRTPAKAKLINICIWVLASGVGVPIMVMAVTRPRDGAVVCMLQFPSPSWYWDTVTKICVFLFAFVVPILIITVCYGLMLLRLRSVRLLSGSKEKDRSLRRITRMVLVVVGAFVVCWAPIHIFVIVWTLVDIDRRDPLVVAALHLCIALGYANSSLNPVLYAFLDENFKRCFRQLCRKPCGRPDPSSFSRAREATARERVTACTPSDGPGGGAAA
UniProt P21620, whole entry: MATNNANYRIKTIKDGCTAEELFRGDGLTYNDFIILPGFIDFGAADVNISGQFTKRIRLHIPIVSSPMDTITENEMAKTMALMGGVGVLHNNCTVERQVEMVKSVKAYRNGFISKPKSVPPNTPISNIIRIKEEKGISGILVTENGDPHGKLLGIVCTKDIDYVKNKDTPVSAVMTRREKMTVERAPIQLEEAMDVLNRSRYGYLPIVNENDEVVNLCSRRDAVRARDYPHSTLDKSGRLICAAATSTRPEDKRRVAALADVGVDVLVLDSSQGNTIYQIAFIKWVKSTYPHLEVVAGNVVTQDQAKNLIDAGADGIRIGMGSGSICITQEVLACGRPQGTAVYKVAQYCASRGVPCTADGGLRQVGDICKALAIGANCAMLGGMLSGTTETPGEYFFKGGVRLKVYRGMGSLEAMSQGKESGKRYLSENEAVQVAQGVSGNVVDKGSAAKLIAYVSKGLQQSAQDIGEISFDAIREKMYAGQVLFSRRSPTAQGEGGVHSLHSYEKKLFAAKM
UniProt P67660, whole entry M154V, looked up: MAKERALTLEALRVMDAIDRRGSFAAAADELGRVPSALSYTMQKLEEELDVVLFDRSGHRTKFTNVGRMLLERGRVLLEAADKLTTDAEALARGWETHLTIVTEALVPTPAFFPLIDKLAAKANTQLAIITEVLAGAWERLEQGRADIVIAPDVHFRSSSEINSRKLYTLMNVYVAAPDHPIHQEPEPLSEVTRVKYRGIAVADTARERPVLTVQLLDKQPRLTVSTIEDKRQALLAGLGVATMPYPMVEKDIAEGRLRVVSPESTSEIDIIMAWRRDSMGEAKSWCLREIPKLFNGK

| SMILES | tested on | test | test system | setting | scale | measurement | result |
| --- | --- | --- | --- | --- | --- | --- | --- |
| CCCN1CCN(c2ccc3c(c2)C2CC3CCN2C(=O)OCc2ccccc2)CC1 (stereo not shown) | CHRM2 (Homo sapiens, UniProt P08172) | binding, radioligand binding |  |  |  | Ki | 4.33 µM |
| C=CC(c1ccc(-c2ccc(O)cc2)cc1)n1ccnc1 (stereo not shown) | cyp121 (Mycobacterium tuberculosis, UniProt P9WPP7) |  |  |  |  | Kd | 7.2 ± 0.5 µM |
| CO[C@]12CC[C@@]3(C[C@@H]1[C@](C)(O)c1cc(C)cc(C)c1)[C@H]1Cc4ccc(O)c5c4[C@@]3(CCN1CC1CC1)[C@H]2O5 | OPRK1 (Homo sapiens, UniProt P41145) | binding, radioligand displacement | CHO | together with: [3H]diprenorphine |  | Ki | 0.0001 ± 4e-05 µM |
| CC#C/C(=N\OC[C@H]1COCCN1)c1ccc2ncnc(Nc3ccc(OCc4cccc(F)c4)c(Cl)c3)c2c1 | NTRK2 (Homo sapiens, UniProt Q16620) | kinase activity |  | 10 µM |  | inhibition | 41.4% |
| CO[C@]12CC[C@@]3(C[C@@H]1[C@H](O)c1ccccc1)[C@H]1Cc4ccc(O)c5c4[C@@]3(CCN1CC1CC1)[C@H]2O5 | OPRM1 (Homo sapiens, UniProt P35372) | binding, radioligand displacement | CHO | together with: [3H]DAMGO |  | Ki | 0.0013 ± 0.00039 µM |
| C[C@H](Cc1ccc(O)c(O)c1)[C@@H](C)Cc1ccc(O)c(O)c1 |  |  | human skin | 3% solution, 8 h, skin UV-treated 20 min |  | amount in epidermis | 19.3 ± 2.86 µg |
| CCN(CC)C(=O)Oc1ccc(C(=O)Nc2cccc3cc[nH]c23)cc1 | GABRR1 (Homo sapiens, UniProt P24046) | modulator, two-electrode voltage clamp | Xenopus oocytes | 20 µM, together with: 1 µM GABA | relative to: agonist alone | current response | 96.6 ± 0.8% |
| CCN1CCN(Cc2ccc(NC(=O)c3ccc(C)c(/C=C/c4cnc5[nH]ccc5c4OC)c3)cc2C(F)(F)F)CC1 | ETV6-FLT3 fusion | kinase-CDC37 interaction, inhibitor, cell-based |  |  |  | EC50 | 0.238 µM |
| Cn1cc(CCN)c2ccccc21 | Slc6a3 (Rattus norvegicus, UniProt P23977) | dopamine release, releaser | rat brain synaptosomes |  |  | EC50 | > 10 µM |
| CC[C@@](O)(c1ccccc1)[C@H]1C[C@@]23C=C[C@]1(OC)[C@@H]1Oc4c(O)ccc5c4[C@@]12CCN(CC1CC1)[C@@H]3C5 | OPRD1 (Homo sapiens, UniProt P41143) | binding, radioligand displacement | CHO | together with: [3H]DPDPE |  | Ki | 0.0012 ± 0.00014 µM |
| O=C(Cn1c(-c2ccccn2)nc2ccccc21)Nc1ccc2ccccc2c1 | Inosine-5'-monophosphate dehydrogenase (Leishmania donovani, UniProt P21620) | enzyme activity, inhibitor |  |  |  | IC50 | > 10 µM |
| Cc1cc(O)ccc1O | Probable HTH-type transcriptional regulator YhaJ, effector-binding domain (yhaJ, Escherichia coli, UniProt P67660, M154V) | microscale thermophoresis |  | pH 7.5 |  | Kd | 8400 ± 2400 µM |
| CSc1nc(Cl)cc(Sc2nnc(-c3cc(C(F)(F)F)cc(C(F)(F)F)c3)[nH]2)n1 | Escherichia coli |  | MC4100 | 37 °C, without PMBN |  | MIC | > 590 µg/mL |

Excerpt of the above:
| SMILES | tested on | test | test system | setting | scale | measurement | result |
| --- | --- | --- | --- | --- | --- | --- | --- |
| CO[C@]12CC[C@@]3(C[C@@H]1[C@H](O)c1ccccc1)[C@H]1Cc4ccc(O)c5c4[C@@]3(CCN1CC1CC1)[C@H]2O5 | OPRM1 (Homo sapiens, UniProt P35372) | binding, radioligand displacement | CHO | together with: [3H]DAMGO |  | Ki | 0.0013 ± 0.00039 µM |
| C[C@H](Cc1ccc(O)c(O)c1)[C@@H](C)Cc1ccc(O)c(O)c1 |  |  | human skin | 3% solution, 8 h, skin UV-treated 20 min |  | amount in epidermis | 19.3 ± 2.86 µg |
